Measured values of several laboratories.
A part holds a random share of what one study measured.
Sequence of UniProt Q08345 (whole entry, looked up): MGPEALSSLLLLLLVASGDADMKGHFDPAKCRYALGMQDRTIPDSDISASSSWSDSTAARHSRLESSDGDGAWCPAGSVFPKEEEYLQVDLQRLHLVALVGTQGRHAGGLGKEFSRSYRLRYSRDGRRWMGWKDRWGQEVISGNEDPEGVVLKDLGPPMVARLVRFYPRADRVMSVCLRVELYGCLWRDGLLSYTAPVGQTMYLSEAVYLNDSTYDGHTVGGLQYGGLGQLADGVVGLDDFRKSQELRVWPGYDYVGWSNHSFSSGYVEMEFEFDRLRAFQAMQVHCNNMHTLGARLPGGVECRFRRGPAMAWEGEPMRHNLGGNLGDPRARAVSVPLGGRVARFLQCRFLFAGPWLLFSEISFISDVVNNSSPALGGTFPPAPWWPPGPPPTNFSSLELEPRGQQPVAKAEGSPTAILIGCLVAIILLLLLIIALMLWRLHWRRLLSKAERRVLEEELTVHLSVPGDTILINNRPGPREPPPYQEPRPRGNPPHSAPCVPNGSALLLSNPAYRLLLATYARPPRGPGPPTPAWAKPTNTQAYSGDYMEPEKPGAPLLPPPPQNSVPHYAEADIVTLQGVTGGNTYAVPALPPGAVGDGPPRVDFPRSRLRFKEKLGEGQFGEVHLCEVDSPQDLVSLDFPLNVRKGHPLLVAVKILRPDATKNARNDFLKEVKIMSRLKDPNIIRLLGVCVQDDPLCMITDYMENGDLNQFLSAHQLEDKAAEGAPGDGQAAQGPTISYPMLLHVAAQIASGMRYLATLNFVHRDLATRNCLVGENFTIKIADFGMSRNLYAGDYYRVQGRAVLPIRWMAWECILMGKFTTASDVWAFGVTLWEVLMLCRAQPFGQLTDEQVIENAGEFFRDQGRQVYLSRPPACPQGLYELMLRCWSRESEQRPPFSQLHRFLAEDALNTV
Sequence of UniProt O75676 (whole entry, looked up): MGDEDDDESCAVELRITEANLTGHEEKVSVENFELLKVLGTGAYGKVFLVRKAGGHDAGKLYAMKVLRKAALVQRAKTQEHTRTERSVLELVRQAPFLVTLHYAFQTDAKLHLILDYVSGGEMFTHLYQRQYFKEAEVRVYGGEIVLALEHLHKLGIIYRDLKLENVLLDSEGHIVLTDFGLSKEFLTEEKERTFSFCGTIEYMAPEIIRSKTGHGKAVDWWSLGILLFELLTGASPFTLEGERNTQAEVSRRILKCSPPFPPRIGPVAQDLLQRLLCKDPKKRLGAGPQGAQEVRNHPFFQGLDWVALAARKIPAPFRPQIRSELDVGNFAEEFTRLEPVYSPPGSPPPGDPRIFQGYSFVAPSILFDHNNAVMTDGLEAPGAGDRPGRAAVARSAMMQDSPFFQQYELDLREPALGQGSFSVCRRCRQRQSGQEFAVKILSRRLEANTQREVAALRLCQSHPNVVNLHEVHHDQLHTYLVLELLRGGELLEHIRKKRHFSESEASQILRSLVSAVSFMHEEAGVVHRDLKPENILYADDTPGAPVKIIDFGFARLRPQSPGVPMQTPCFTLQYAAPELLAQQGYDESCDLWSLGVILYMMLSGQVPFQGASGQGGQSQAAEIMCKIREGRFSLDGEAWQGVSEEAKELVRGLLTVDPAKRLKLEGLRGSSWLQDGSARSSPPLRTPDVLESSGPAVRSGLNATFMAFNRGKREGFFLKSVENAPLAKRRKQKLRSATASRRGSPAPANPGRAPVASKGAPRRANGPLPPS
Sequence of UniProt Q5S007 (whole entry, looked up): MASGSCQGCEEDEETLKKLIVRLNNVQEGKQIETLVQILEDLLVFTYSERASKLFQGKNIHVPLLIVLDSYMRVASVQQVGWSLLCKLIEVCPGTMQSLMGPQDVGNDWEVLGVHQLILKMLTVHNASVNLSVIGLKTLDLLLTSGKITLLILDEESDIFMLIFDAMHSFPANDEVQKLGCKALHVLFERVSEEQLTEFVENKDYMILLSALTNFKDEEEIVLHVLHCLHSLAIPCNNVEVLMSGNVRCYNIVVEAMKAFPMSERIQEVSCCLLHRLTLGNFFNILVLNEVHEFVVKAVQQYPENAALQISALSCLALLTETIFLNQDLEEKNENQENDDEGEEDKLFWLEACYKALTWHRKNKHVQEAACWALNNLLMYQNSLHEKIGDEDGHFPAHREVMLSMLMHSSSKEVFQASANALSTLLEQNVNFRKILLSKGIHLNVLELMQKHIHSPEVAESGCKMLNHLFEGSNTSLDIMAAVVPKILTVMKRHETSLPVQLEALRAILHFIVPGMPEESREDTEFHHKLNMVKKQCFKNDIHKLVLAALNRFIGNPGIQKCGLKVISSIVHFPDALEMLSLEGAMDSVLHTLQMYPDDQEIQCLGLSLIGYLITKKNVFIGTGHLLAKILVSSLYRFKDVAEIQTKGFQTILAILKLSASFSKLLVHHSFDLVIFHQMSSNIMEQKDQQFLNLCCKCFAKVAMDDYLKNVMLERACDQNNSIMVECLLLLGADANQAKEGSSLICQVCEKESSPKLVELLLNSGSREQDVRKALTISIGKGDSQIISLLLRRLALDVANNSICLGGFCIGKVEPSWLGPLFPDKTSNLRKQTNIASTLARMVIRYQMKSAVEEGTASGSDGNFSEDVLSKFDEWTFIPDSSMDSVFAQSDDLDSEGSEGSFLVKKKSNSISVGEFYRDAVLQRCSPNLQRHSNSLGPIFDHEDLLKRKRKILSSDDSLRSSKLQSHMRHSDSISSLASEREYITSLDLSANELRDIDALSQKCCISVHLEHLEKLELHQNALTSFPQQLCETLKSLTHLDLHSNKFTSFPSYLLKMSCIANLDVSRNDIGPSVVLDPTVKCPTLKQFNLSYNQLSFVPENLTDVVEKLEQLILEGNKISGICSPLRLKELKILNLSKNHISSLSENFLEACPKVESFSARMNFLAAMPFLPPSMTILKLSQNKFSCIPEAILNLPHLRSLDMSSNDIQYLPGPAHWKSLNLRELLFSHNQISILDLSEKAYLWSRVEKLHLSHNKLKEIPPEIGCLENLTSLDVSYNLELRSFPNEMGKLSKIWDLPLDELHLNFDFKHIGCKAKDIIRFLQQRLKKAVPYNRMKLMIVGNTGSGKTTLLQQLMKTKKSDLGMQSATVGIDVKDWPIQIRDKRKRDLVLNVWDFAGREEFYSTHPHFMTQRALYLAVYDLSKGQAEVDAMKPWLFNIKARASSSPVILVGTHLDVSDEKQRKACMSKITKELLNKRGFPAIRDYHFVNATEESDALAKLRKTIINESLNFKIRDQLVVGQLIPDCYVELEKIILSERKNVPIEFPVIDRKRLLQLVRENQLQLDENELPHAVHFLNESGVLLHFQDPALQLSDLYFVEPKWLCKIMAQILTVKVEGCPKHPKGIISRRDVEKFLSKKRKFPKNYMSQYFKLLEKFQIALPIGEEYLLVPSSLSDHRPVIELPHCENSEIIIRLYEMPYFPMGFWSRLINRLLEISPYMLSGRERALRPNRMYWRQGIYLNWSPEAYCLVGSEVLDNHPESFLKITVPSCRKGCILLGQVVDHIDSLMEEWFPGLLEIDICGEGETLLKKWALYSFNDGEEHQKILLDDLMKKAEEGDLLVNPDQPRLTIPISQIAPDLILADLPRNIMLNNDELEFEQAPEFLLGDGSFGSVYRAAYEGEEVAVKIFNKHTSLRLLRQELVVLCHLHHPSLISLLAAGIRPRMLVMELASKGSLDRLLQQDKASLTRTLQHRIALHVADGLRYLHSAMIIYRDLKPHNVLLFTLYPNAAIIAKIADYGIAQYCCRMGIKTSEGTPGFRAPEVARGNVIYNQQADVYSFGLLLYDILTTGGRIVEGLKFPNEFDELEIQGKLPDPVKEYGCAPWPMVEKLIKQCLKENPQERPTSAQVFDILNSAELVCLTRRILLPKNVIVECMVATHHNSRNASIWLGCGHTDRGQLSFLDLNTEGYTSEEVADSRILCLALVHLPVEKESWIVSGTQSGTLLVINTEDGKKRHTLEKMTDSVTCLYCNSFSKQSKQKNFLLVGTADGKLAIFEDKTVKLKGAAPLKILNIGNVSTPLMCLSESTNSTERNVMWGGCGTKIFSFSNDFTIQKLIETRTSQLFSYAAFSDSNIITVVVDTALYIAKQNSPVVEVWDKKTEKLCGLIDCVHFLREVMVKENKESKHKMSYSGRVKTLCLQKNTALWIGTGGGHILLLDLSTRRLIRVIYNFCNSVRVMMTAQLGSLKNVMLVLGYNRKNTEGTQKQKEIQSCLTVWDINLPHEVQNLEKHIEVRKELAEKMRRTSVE
Sequence of UniProt Q8NG66 (whole entry, looked up): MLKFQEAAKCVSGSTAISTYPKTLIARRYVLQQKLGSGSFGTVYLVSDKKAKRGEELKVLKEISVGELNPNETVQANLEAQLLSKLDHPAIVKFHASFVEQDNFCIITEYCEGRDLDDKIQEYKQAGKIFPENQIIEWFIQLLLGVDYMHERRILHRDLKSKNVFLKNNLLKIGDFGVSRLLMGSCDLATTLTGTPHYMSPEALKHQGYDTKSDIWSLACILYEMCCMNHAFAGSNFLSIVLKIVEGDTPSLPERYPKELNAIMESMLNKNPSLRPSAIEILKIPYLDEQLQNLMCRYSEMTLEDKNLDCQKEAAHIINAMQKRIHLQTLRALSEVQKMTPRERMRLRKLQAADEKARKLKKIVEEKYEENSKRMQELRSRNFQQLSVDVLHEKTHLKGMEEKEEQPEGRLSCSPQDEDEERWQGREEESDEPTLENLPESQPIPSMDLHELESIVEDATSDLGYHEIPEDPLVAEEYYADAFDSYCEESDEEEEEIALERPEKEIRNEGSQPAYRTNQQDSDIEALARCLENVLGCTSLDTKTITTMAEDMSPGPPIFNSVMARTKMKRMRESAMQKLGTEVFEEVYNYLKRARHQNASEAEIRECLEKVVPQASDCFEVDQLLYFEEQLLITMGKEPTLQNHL

Sample 1
Structure (SMILES): Cc1noc([C@H]2C[C@@H](c3ccc(C(F)(F)F)cc3)CN(C(=O)N3CCS(=O)(=O)C3)C2)n1
Observed: cell-free assay
Technique: competition with immobilised ligand
Tested at: 1 µM
target	remaining binding [%]
KIT (Homo sapiens, UniProt P10721, T670I/V559D)	100
BRSK1 (Homo sapiens, UniProt Q8TDC3)	100
Ribosomal protein S6 kinase alpha-4, C-terminal kinase domain (RPS6KA4, Homo sapiens, UniProt O75676)	100
LRRK2 (Homo sapiens, UniProt Q5S007)	65
NEK11 (Homo sapiens, UniProt Q8NG66)	100
DDR1 (Homo sapiens, UniProt Q08345)	100

Sample 2
Target: Protein C-ets-1, full length (ETS1, Homo sapiens, UniProt P14921, residues 1-441)
Technique: protein-binding microarray
Molecule type: hairpin DNA
Matrix: in vitro
Tested at: not given
Notes: whole hairpin DNA, median over replicate spots
Relative to: not given
Direction: higher = stronger binding
Target sequence (chain): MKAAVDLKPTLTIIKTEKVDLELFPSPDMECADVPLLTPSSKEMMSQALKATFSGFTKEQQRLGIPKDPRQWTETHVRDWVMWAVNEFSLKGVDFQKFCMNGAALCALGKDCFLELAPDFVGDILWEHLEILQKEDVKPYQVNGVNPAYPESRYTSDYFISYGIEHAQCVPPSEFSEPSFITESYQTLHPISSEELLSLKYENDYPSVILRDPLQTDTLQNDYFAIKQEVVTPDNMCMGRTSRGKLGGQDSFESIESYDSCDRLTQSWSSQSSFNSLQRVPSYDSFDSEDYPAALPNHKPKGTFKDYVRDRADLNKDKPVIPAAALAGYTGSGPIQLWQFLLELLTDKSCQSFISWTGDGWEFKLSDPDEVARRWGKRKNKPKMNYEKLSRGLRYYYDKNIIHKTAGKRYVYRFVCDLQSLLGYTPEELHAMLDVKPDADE
Oligonucleotide	median fluorescence
GAGGCCAGTCGGAAGCGGCCTCCTGGCCGCTTCCGACTGGCCTCACACTC	1640 a.u.
GAGGCCAGTCGGAAGCTGCCTCCTGGCAGCTTCCGACTGGCCTCACACTC (5mC at 16)	1670 a.u.
GAGGCCAGCCGGACGTTGCCTCCTGGCAACGTCCGGCTGGCCTCACACTC (5mC at 14)	2420 a.u.
GAGGCCAGCCGGCAGTTGCCTCCTGGCAACTGCCGGCTGGCCTCACACTC	603 a.u.
GAGGCCGGCCGGAAGTTGCCTCCTGGCAACTTCCGGCCGGCCTCACACTC (5mC at 38)	12300 a.u.
GAGGCCACCCGGAAGTTGCCTCCTGGCAACTTCCGGGTGGCCTCACACTC (5mC at 8)	6870 a.u.
GAGGCCAGTCGGAATTTGCCTCCTGGCAAATTCCGACTGGCCTCACACTC	621 a.u.
GAGGCCAGCCGGAGGTTGCCTCCTGGCAACCTCCGGCTGGCCTCACACTC	830 a.u.

Sample 3
Target: Proto-oncogene tyrosine-protein kinase Src (SRC, Homo sapiens, UniProt P12931)
Observed: enzyme activity
Action: inhibitor
Tested at: 0.5 µM
Relative to: control
SMILES	remaining activity [%]
COc1ccc(CNC(=O)Nc2ncc([N+](=O)[O-])s2)cc1	101
OCC(O)CCON=C1C(c2c(O)[nH]c3ccccc23)=Nc2ccccc21 (stereo not shown)	22.6
COc1ccc(OC)c2c(=S)c3ccccc3[nH]c12	90.6
Cn1sc(=O)n(Cc2ccccc2)c1=O	95
COc1ccc(C(=O)Nc2sc3c(c2C(N)=O)CCCC3)cc1OC	100
COc1cc2ncnc(Nc3ccc(Oc4ccccc4)cc3)c2cc1OC	82.8
CN(C)c1ccc(C=C2C(=O)Nc3ccccc32)cc1	102
C#Cc1cccc(Nc2ncnc3cc(OCCOC)c(OCCOC)cc23)c1	77.4
Cc1ccc(Nc2nccc(N(C)c3ccc4c(C)n(C)nc4c3)n2)cc1S(N)(=O)=O	70.7
CCOC(=O)c1c(C)[nH]c(/C=C2\C(=O)Nc3ccccc32)c1C	93.8
Cc1cccc(-c2[nH]c(C(C)(C)C)nc2-c2ccc3c(c2)OCO3)n1	96
O=C(O)c1ccc2c3c1cccc3c(=O)n1c3ccccc3nc21	96.3
O=c1c2ccccc2[nH]c(=S)n1CCN1CCC(=C(c2ccc(F)cc2)c2ccc(F)cc2)CC1	103
O=C(CCCc1ccc(-c2ccccc2F)cc1)Nc1ccc(O)cc1	93.7

Mixed results
SMILES	test system	conditions	quantity	value
CCCC(C(=O)O)c1c(C)ncnc1-c1cc(F)c2c(c1C)CCCO2 (stereo not shown)	human, microsomes or S9	2 µM, 0.5 h	remaining compound	> 99%
CC(C)n1cnc(-c2ccc(F)cc2)c1-c1ncc(C(=O)Nc2ccc(N3CCN(C)CC3)cc2)[nH]1	IPF patients	30 mg once daily, adverse event	Nausea incidence	0%
O=C1CN(c2nc(C3CCCC3)nc3c2CCOCC3)CCN1	human, microsomes or S9	2 µM, 0.5 h	remaining compound	94.7%

Some of these lines once more (sample 2):
Oligonucleotide	median fluorescence
GAGGCCAGCCGGACGTTGCCTCCTGGCAACGTCCGGCTGGCCTCACACTC (5mC at 14)	2420 a.u.
GAGGCCAGCCGGCAGTTGCCTCCTGGCAACTGCCGGCTGGCCTCACACTC	603 a.u.
GAGGCCAGTCGGAAGCTGCCTCCTGGCAGCTTCCGACTGGCCTCACACTC (5mC at 16)	1670 a.u.
GAGGCCAGTCGGAATTTGCCTCCTGGCAAATTCCGACTGGCCTCACACTC	621 a.u.
GAGGCCAGCCGGAGGTTGCCTCCTGGCAACCTCCGGCTGGCCTCACACTC	830 a.u.
